{"data": "Measured values gathered from unrelated publications", "note": "Compare with care: the assays were run in different laboratories. ± marks the error that the study gave."}
{"SMILES": "CCOc1ccc(C[C@@H]2NC(=O)[C@@H](N)CSSC[C@@H](C(=O)N3CCC[C@H]3C(=O)N[C@@H](CC(C)C)C(=O)NCC(N)=O)NC(=O)[C@H](CC(N)=O)NC(=O)[C@H](CCC(N)=O)NC(=O)[C@H]([C@@H](C)CC)NC2=O)cc1", "test": "antagonist", "system": "Bufo marinus urinary bladder", "conditions": "with: [8-arginine]-vasopressin", "endpoint": "pA2", "value": 6.66}
{"SMILES": "CCN(CC)CCSc1nnc(C23CC4CC(CC(C4)C2)C3)n1C", "test": "paw oedema", "system": "rat", "conditions": "intraperitoneal, 40 mg/kg", "endpoint": "inhibition in vivo", "value": "2.06%"}
{"SMILES": "Cc1ccc(C2=C(c3ccc([18F])cc3)C(=O)OC2(C)C)cc1", "test": "PET/CT", "system": "mouse, SK-OV-3/COX-1 peritoneal tumour", "conditions": "retro-orbital, 5 min", "endpoint": "normalized tumour uptake", "value": "25 ± 6"}
{"SMILES": "Cc1cc(O)c(C=O)c2c1C(=O)Oc1c(CO)c(O)c3c(c1O2)C(O)OC3=O (centres unmarked)", "test": "copulatory behaviour test", "system": "rat, male, streptozotocin-induced diabetes", "conditions": "10 mg/kg, day 63", "endpoint": "post-ejaculatory interval", "value": "1270 ± 154 s"}
{"SMILES": "O=c1c(OCc2ccccc2)c(-c2cccc([N+](=O)[O-])c2)oc2ccccc12", "system": "diabetic rat", "conditions": "7.5 mg/kg, day 21, p-nitrophenyl β-glucoside induced", "endpoint": "blood glucose", "value": "183 ± 4.63 mg/dL"}
{"SMILES": "COC(=O)C(Cc1c[nH]cn1)NC(=O)C1(C)C(O)CCC2(C)C1CCC1(C)C2CC=C2C3C(C)C(C)CCC3(C)CCC21C (centres unmarked)", "system": "rat TNBS-induced colitis", "conditions": "oral, dose not given, day 9", "scale": "direction not given", "endpoint": "clinical activity score", "value": "1.55 ± 1.07"}
{"SMILES": "CC[C@H]1[C@@H](O)[C@@H]2[C@H](CC[C@]3(C)[C@@H]([C@H](C)CCOS(=O)(=O)[O-])CC[C@@H]23)[C@@]2(C)CC[C@@H](O)C[C@@H]12.[Na+]", "test": "immunohistochemistry, item: lipid", "system": "ob/ob NASH mouse model, liver", "conditions": "10 mg/kg, 16 weeks", "endpoint": "fractional area", "value": "12.5 ± 1.5%"}
{"SMILES": "COc1cc(CN2CCN(c3ccc([N+](=O)[O-])cc3)CC2)c2cc3[n+](cc2c1O)CCc1cc2c(cc1-3)OCO2", "test": "ABTS scavenging, absorbance", "conditions": "10 min", "endpoint": "IC50", "value": "8.79 µg/mL"}
{"SMILES": "O=c1c(OCc2ccccc2)c(-c2ccc([N+](=O)[O-])cc2)oc2ccccc12", "system": "diabetic rat", "conditions": "7.5 mg/kg, day 21, p-nitrophenyl β-glucoside induced", "endpoint": "blood glucose", "value": "199 ± 4.8 mg/dL"}
{"SMILES": "O=C(NCC1OC2CCC=CCCC2O1)c1ccc([18F])nc1 (centres unmarked)", "system": "MeOH/water 50:50", "conditions": "37 °C, with: methyltetrazine-NHS 0.05 mM", "endpoint": "second-order rate constant", "value": "10600 M⁻¹ s⁻¹"}
{"SMILES": "CCCCCCCCCCCCCCCC(=O)OCC(CSC[C@H](N)C(=O)N[C@@H](CO)C(=O)N[C@@H](CCCCN)C(=O)N[C@@H](CCCCN)C(=O)N[C@@H](CCCCN)C(=O)N[C@@H](CCCCN)C(=O)NCCCCCC(=O)N[C@@H](CCCCN)C(=O)N[C@@H](CC(C)C)C(=O)N[C@H](C(=O)N[C@@H](Cc1ccccc1)C(=O)N[C@@H](Cc1ccccc1)C(=O)N[C@@H](Cc1ccc2ccccc2c1)C(=O)O)C(C)C)OC(=O)CCCCCCCCCCCCCCC (some centres unmarked)", "test": "item: OC-positive amyloid", "system": "APP/PS1 mouse, 13 months", "conditions": "intracortical, 100 µM, 300 nL, 5 d", "scale": "baseline: injected over adjacent side", "endpoint": "amyloid oligomer area ratio", "value": "0.55 ± 0.13"}
{"SMILES": "O=C1/C(=C/c2ccc(O)c(O)c2)Oc2cc(O)c3c(oc4cc(O)c(O)cc43)c21", "test": "DPPH scavenging, absorbance", "endpoint": "EC50", "value": "> 20 mM"}
{"SMILES": "COc1ccc(C2CC(c3ccc(C)cc3)=Nc3ccccc3S2)cc1 (centres unmarked)", "system": "Wistar rat, STZ-induced diabetes", "conditions": "oral, 10 mg/kg once daily, day 28", "endpoint": "blood glucose", "value": "132 mg/dL"}
{"SMILES": "CCc1nnc(NS(=O)(=O)c2ccc(NC(=S)NC(=O)/C=C/c3ccc(F)cc3)cc2)s1", "test": "immunostaining", "system": "athymic nude mouse, BE(2)-C xenograft, tumour", "conditions": "ip, 20 mg/kg daily, 3 weeks", "endpoint": "cleaved caspase-3 level", "value": "increased"}
{"SMILES": "Cc1nc(C)c(C=[N+]([O-])C(C)(C)C)nc1C", "test": "immunofluorescence, item: 3-NT", "system": "MPTP mouse model, substantia nigra", "conditions": "30 mg/kg", "scale": "baseline: sham", "endpoint": "fluorescence intensity", "value": "216 ± 8.27%"}
{"SMILES": "CCCCCCCCC=CCCCCCCCC(=O)OCC1OC(n2ccc(N)nc2=O)C(F)(F)C1O (centres unmarked)", "system": "female nude mouse, colon xenograft, patient-derived colon tumour", "conditions": "oral, 150 mg/kg, dosed days 1 and 8", "scale": "baseline: saline control", "endpoint": "optimal tumour volume T/C", "value": "5%"}
{"SMILES": "O=c1c(OCc2ccccc2)c(-c2ccc(Cl)cc2)oc2ccccc12", "system": "diabetic rat", "conditions": "7.5 mg/kg, day 21, p-nitrophenyl β-glucoside induced", "endpoint": "blood glucose", "value": "191 ± 5.32 mg/dL"}
{"SMILES": "COc1ccc2c(c1)c(CC(=O)OCOC(C)=O)c(C)n2C(=O)c1ccc(Cl)cc1", "test": "hot plate test", "system": "BALB/c mice", "conditions": "50 mg/kg, 30 min", "endpoint": "latency of nociceptive response", "value": "14.9 ± 1.43 s"}
{"SMILES": "O=C1/C(=C/c2ccc(O)cc2)Oc2cc(O)c(-c3ccc(O)c(O)c3)c(O)c21", "test": "DPPH scavenging, absorbance", "endpoint": "EC50", "value": "0.43 mM"}
{"SMILES": "COc1ccc2c(c1OC)C(C(Cl)(Cl)Cl)N1CCc3cc4c(cc3C1=C2)OCO4 (centres unmarked)", "system": "rat, STZ-induced diabetic, serum", "conditions": "oral, 12 mg/kg, day 28", "endpoint": "creatinine", "value": "1.04 ± 0.09 mg/dL"}
{"SMILES": "CSCC[C@@H]1NC(=O)[C@H](C)NC(=O)[C@H]([C@@H](C)O)NC(=O)CNC(=O)[C@H](CC(C)C)NC(=O)[C@H](CCC(N)=O)NC(=O)[C@H](CCCNC(=N)N)NC(=O)[C@@H]2CSSC[C@@H]3NC(=O)[C@@H]4CCCN4C(=O)[C@H](C(C)C)NC(=O)[C@H](CCC(N)=O)NC(=O)[C@H](CCC(N)=O)NC(=O)CNC(=O)[C@H](CC(C)C)NC(=O)[C@@H]4CSSC[C@H](NC(=O)[C@H]([C@@H](C)O)NC(=O)[C@H](C)NC(=O)[C@H](CSSC[C@@H](C(=O)N[C@@H](CO)C(=O)N[C@@H](CCC(N)=O)C(=O)N[C@H](C(N)=O)[C@@H](C)O)NC(=O)[C@@H]5CCCN5C(=O)[C@H](CC(N)=O)NC1=O)NC(=O)[C@@H]1CCCN1C(=O)[C@H](CC(=O)O)NC(=O)[C@H](CSSC[C@H](NC(=O)[C@H](CCCNC(=N)N)NC(=O)[C@H](CCCNC(=N)N)NC(=O)[C@H](CO)NC(=O)[C@@H](N)CO)C(=O)N[C@@H](C(C)C)C(=O)N[C@@H](CCCNC(=N)N)C(=O)N[C@@H](CC(C)C)C(=O)N[C@@H](Cc1c[nH]cn1)C(=O)N[C@@H](CCC(=O)O)C(=O)N[C@@H](CO)C(=O)N4)NC3=O)C(=O)N[C@@H](Cc1ccc(O)cc1)C(=O)N[C@H]1CSSC[C@H](NC(=O)[C@H](Cc3ccccc3)NC(=O)[C@H](C)NC(=O)[C@H](CC(N)=O)NC(=O)[C@H](Cc3ccccc3)NC(=O)[C@H](Cc3ccccc3)NC(=O)[C@H](CCCNC(=N)N)NC1=O)C(=O)N[C@@H](Cc1ccc(O)cc1)C(=O)N2", "system": "Long-Evans rat, male", "conditions": "intracerebroventricular, 1.0 nmol, day 3, non-cumulative", "scale": "baseline: saline", "endpoint": "food intake", "value": "39.8 ± 4.6 % above saline"}
{"SMILES": "CC1=C(O)C(=O)C=C2C1=CC=C1[C@@]2(C)CC[C@@]2(C)[C@@H]3C[C@](C)(C(=O)NCCOCCOCCOCCOCC(=O)N[C@H](C(=O)N4C[C@H](O)C[C@H]4C(=O)N[C@@H](C)c4ccc(-c5scnc5C)cc4)C(C)(C)C)CC[C@]3(C)CC[C@]12C", "test": "flow cytometry", "system": "mouse, Yumm1.7 melanoma model, tumour", "conditions": "ip, 2 doses of 1.8 mg/kg", "endpoint": "tumour-infiltrating B cells", "value": "increased"}
{"SMILES": "O=C1/C(=C/c2ccc(O)cc2)Oc2cc(O)c3c(oc4cc(O)c(O)cc43)c21", "test": "DPPH scavenging, absorbance", "endpoint": "EC50", "value": "> 20 mM"}
{"SMILES": "CC(=O)N[C@@H](CC(N)=O)C(=O)NCC(=O)N[C@@H](C)C(=O)N[C@@H](C)C(N)=O", "test": "1H NMR", "system": "sodium phosphate buffer 50 mM", "conditions": "pH 7.4, 28 °C", "endpoint": "rate constant succinimide to α-Asp", "value": "0.055 h⁻¹"}
{"SMILES": "COc1ccc(-c2oc3ccccc3c(=O)c2OCc2ccccc2)cc1", "system": "diabetic rat", "conditions": "5 mg/kg, day 28, p-nitrophenyl β-glucoside induced", "endpoint": "blood glucose", "value": "126 ± 4.91 mg/dL"}
{"SMILES": "COc1ccc(S(=O)(=O)N2CCc3ccccc3C2)cc1N1CCN(C(=O)c2ccc(F)cc2C(F)(F)F)CC1", "system": "6-OHDA lesioned rats", "conditions": "0.1 µg/24 h, 12 weeks post lesion", "scale": "baseline: intact side", "endpoint": "DAT-ir cells in SNpc", "value": "9.1 ± 1.7%"}
{"SMILES": "C=C(c1ccc(C(=O)O)c(F)c1)c1cc2c(cc1C)C(C)(C)C=CC2(C)C", "test": "RNA sequencing, item: Cga mRNA", "system": "rat, brain", "conditions": "dose not given, 24 h, single dose", "scale": "baseline: vehicle", "endpoint": "log2 fold change", "value": 2.22}
{"SMILES": "CSCC[C@@H]1NC(=O)[C@H](CCCCN)NC(=O)[C@H]([C@@H](C)O)NC(=O)[C@H](CCCCN)NC(=O)[C@H](CC(C)C)NC(=O)[C@H](CCCCN)NC(=O)[C@H](CCCNC(=N)N)NC(=O)[C@@H]2CSSC[C@@H]3NC(=O)[C@@H]4CCCN4C(=O)[C@H](C(C)C)NC(=O)[C@H](CCC(N)=O)NC(=O)[C@H](CCC(N)=O)NC(=O)CNC(=O)[C@H](CC(C)C)NC(=O)[C@@H]4CSSC[C@H](NC(=O)[C@H]([C@@H](C)O)NC(=O)[C@H](C)NC(=O)[C@H](CSSC[C@@H](C(=O)N[C@@H](CO)C(=O)N[C@@H](CCCNC(=N)N)C(=O)N[C@H](C(N)=O)[C@@H](C)O)NC(=O)[C@@H]5CCCN5C(=O)[C@H](CC(N)=O)NC1=O)NC(=O)[C@@H]1CCCN1C(=O)[C@H](CC(=O)O)NC(=O)[C@H](CSSC[C@H](NC(=O)[C@H](CCCNC(=N)N)NC(=O)[C@H](CCCNC(=N)N)NC(=O)[C@H](CCCCN)NC(=O)[C@@H](N)CCCCN)C(=O)N[C@@H](C(C)C)C(=O)N[C@@H](CCCNC(=N)N)C(=O)N[C@@H](CC(C)C)C(=O)N[C@@H](Cc1c[nH]cn1)C(=O)N[C@@H](CCC(=O)O)C(=O)N[C@@H](CO)C(=O)N4)NC3=O)C(=O)N[C@@H](Cc1ccc(O)cc1)C(=O)N[C@H]1CSSC[C@H](NC(=O)[C@H](Cc3ccccc3)NC(=O)[C@H](C)NC(=O)[C@H](CC(N)=O)NC(=O)[C@H](Cc3ccccc3)NC(=O)[C@H](Cc3ccccc3)NC(=O)[C@H](CCCNC(=N)N)NC1=O)C(=O)N[C@@H](Cc1ccc(O)cc1)C(=O)N2", "system": "Long-Evans rat, male", "conditions": "intracerebroventricular, 1.0 nmol in 1.0 µL, 24 h, non-cumulative", "scale": "baseline: saline", "endpoint": "food intake", "value": "118 ± 8.3 % above saline"}
{"SMILES": "CCOc1cncc(-c2ccc(NC(=O)C(CC)c3ccnc(NS(=O)(=O)C4CC4)n3)nc2)n1 (centres unmarked)", "test": "enzyme activity, inhibitor, RapidFire mass spectrometry", "system": "dog", "scale": "baseline: CTPS1 over CTPS2", "endpoint": "selectivity ratio", "value": 141}
{"note": "Repeated from above:"}
{"SMILES": "O=c1c(OCc2ccccc2)c(-c2cccc([N+](=O)[O-])c2)oc2ccccc12", "system": "diabetic rat", "conditions": "7.5 mg/kg, day 21, p-nitrophenyl β-glucoside induced", "endpoint": "blood glucose", "value": "183 ± 4.63 mg/dL"}
{"SMILES": "COC(=O)C(Cc1c[nH]cn1)NC(=O)C1(C)C(O)CCC2(C)C1CCC1(C)C2CC=C2C3C(C)C(C)CCC3(C)CCC21C (centres unmarked)", "system": "rat TNBS-induced colitis", "conditions": "oral, dose not given, day 9", "scale": "direction not given", "endpoint": "clinical activity score", "value": "1.55 ± 1.07"}
{"SMILES": "CC[C@H]1[C@@H](O)[C@@H]2[C@H](CC[C@]3(C)[C@@H]([C@H](C)CCOS(=O)(=O)[O-])CC[C@@H]23)[C@@]2(C)CC[C@@H](O)C[C@@H]12.[Na+]", "test": "immunohistochemistry, item: lipid", "system": "ob/ob NASH mouse model, liver", "conditions": "10 mg/kg, 16 weeks", "endpoint": "fractional area", "value": "12.5 ± 1.5%"}
